Measured values collected from several papers.
Parts stem from different laboratories: compare values within a part only.

Series 1 — technique: RNA Bind-n-Seq; form: RNA; medium: in vitro; tested at: 365 nM; baseline: no-protein control; direction: higher = stronger binding; quantity: RBNS enrichment (R)
Target: RNA binding protein fox-1 homolog 2, RRM domain, GST-SBP tag (RBFOX2, Homo sapiens, UniProt O43251-10, residues 100-194)
Notes: natural RNA segment, single round, ends assumed
Constant ends, left off below: GGGAGUUCUACAGUCCGACGAUC … UGGAAUUCUCGGGUGCCAA
Target sequence (chain): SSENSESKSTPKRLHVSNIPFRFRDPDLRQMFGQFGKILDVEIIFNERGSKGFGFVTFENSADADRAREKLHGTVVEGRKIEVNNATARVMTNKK
CUCAGAGCCCUGCCCUGCACCCUUGUACAGUGUCUGUGCCAUGGAUUUCGUUUUUCUUGGGGUACUCUUGAUGUGAAGAUAAUUUGCAUAUUCUAUUGUAUUAUUUGGAG: 0.31
CUUCCUUCUUGUUAAUAAGGAGACCUGACGCACACAGCCAGUGGAUUCCCCUCCACCUCGGGAGGGGACAGGCUCCCACAUCCCAUCCCACCCUCCACACCCCAAAGAGA: 0.614
CUUCAUUAGAGCUAUCAAUACUGAGUGGCUAGAACUCCAGGGACUGUGUGGGUUGCUCUGUUUUCUUACUGGAAUGCCUUCUCCGGAACUGUUGCGGUUUCAUUCUCUGU: 1.07
AGAGACCCUGAAAGAGGAGGGAGGACCCGCCUCCUUGUCUGCACAACUGCAUGCACUUCUCUCCCCAUCGCUCCACAACCUGAAACCGAGAAGGAGUUGCUGACCAGUGC: 3.89
CCCCCAGUUCAAGUGAUUCUUCUGCCUCGGCCUCCUGAGUAACUGGGACUACAGGCGCCUACCACCACGCCCAGCUAAGUUUUGUAUUUUUAGUAGAGUCAGGGUUUCAC: 0.793
CUAUUGUAAAAAUUGCUCUUAAUUCUUGAAGAGGCUACUGAGAAGCAGUGGGGUAGAUCUCAUGAGGUUACCUACAGCUACUUCAUGUUCUUACACUGUAAGCCUUGUUG: 0.323
AAGACAAAGAAAUUGUCCUCCAACUCAGCUUUUCCCCCCCUGUUUGGGUGAAAGUGGUUCUAGAACCUGCACUGAAUAGUAGUAAAGCAAUAAGGCCCGAUUCAUCCCAC: 0.318
AGUUUCAAUAAAGUUUGAUCUUCCUCUGCUAAAUUGAUGUUGAUGCAAUCCUUACAAAUGAUUGCUUUUAAAAUUUUAAGCUAGGAAAAGAAAUCUAUAGAAAGUGUUCU: 0.481

Series 2 — technique: RNA Bind-n-Seq; form: RNA; medium: in vitro; tested at: not given; baseline: input RNA pool; direction: higher = stronger binding; quantity: bound/input enrichment
Target: RING finger protein unkempt homolog, zinc fingers 1-6, GST-SBP tag (UNK, Homo sapiens, UniProt Q9C0B0, residues 30-357)
Notes: RNA with constant flanks, human and mouse sites, ends assumed
Constant ends, left off below: GGGAGUUCUACAGUCCGACGAUC … CAACAGAGGAUUGAGCAUCA
Target sequence (chain): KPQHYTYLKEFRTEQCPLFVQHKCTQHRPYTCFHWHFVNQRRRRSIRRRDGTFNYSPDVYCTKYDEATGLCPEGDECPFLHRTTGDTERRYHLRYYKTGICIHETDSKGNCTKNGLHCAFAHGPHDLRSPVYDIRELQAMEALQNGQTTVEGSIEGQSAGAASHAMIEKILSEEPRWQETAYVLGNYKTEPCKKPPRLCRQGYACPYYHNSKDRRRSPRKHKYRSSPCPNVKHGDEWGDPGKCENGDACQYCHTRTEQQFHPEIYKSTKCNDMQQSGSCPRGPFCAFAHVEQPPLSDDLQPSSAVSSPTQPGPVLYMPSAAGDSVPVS
GAUGUGGCAGCAAGAAACUCAAAUGUGCAUUUGUAACUGAAUUGAACACUUGUCAUGCUGUAGAUGCCAGCCCAUCAAUAGUAGAGCUUAUGAGACUCAUUUAAACUGUCUUUGGUUUAA: 0.202 ratio
GAAUCCUGACUGUUUGGGACAUGCAGAGCUUGUCUAUGAGUAUACACUGGGUGAGGAGAAGUUCACCUUUAUUGAGAAGUGUAACAAUCCCCGUUCUGUCACUUUACUGGUUAAAGGACC: 0.0561 ratio
GCAACUUGGAAAGGCUGUCUUUCAAACUUCAGUUCCUAUCUGACUAAAACAGCCGAUUUCAUAGAACAAUCAGUUUUUUACUGGGAACAGGUGACAGAUGGGUUUUUCAUUUUCAAUGAA: 0.213 ratio
UCUCUGUUCAGCCGUUAAUGCUGGGAUCCAUAUUUAGUUUUAUAAGCUUUUCCCUGUUUUUAGUUUCGUUUGGGUUUUUUUGGCUCAUGGAUUUUAUUUUCUGUUUGUCGAUAAGAAAUG: 48.4 ratio
CUGCCACCUUCCCUCCUGUAAUUAUUUUCUAUUUUUGUAAACUUGUUGCAUUUUUAUAUGAUUUUCUUGACUGCACGUUGGCCAGAAGGACUGCUGGCCUGGCCUCCUUUCCGUCCGGGC: 2.34 ratio
UGUGGUGGAGAAGGUAUCUCAUUCCUCUCUAACAUCAUCUCCACUUUGCAUCUGUCUCUCUUAGUCUGCUUUUUUUCCACCGAUGUAACAGACCUGGAGCCAGCAGGACUCAGAGGAAAG: 0.302 ratio
UUUGUGAAUUUCUCUGAGCAGAAGGAAAAGCUGAUAAAGCGGCAAGAGGAAUUGGAUAGAGGCUACAAAUCAAUCAUGGAAUUGAUGAAUGUACUUGAACUUAGAAAAUAUGAAGCUAUU: 1.27 ratio
UCUGUGUAUGCACACUCCACCCCAGAGUGUUUUCAGUGUGCCAGAGAAGCAGCUGUAGCGUUAGGACAUGAGCCUGUCUAGUGUUUCCUAGGAAAGGGAUAGUUUUCUGUUGGUAUAGCA: 3.22 ratio

Series 3 — technique: RNAcompete; form: RNA; medium: in vitro; tested at: 20 nM; notes: 7-mer, probes averaged, single round; baseline: mean of 7-mers; direction: higher = stronger binding; quantity: 7-mer Z-score
Target: PABPC1L2, full length, GST fusion (mouse, UniProt A0ABA7IW68)
Construct (chain): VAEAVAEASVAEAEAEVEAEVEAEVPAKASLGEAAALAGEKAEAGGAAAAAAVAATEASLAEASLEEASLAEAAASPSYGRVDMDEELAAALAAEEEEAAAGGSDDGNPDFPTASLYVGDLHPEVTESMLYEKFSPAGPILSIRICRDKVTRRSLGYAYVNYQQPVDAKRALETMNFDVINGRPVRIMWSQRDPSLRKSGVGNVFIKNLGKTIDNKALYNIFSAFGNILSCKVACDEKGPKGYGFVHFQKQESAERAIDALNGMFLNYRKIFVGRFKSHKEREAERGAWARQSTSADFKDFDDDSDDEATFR
UGGGUGU: -0.0482
GAAAGCC: -0.0264
CUAGAGU: -0.396
GCGCCCA: -0.374
CUGUAGC: -0.155
UCGGCCC: -0.208
CUGGCCA: -0.298
CUUCCCA: -0.407
CUGCUCA: -0.338
CUUGUAA: -0.101
CGCUCCG: -0.374
GAUUCAC: -0.275
UCCUGCC: -0.467
UUAGGUC: -0.0826
UAAGGUA: 0.0315
UCCCACU: -0.342
CGGCAAA: 0.8
AUUAAAU: 0.809
CCAUAUU: -0.318
ACUAGCA: -0.0844

Series 4 — technique: EMSA with sequencing; form: double-stranded DNA, one strand shown; medium: in vitro; tested at: 10 and 20 nM; baseline: negative control set to 0; direction: higher = stronger binding; quantity: normalised bound fraction
Target: Hepatocyte nuclear factor 3-alpha (Foxa1, Mus musculus, UniProt P35582, residues 1-468, full length assumed)
UniProt P35582, sequence (whole entry, looked up): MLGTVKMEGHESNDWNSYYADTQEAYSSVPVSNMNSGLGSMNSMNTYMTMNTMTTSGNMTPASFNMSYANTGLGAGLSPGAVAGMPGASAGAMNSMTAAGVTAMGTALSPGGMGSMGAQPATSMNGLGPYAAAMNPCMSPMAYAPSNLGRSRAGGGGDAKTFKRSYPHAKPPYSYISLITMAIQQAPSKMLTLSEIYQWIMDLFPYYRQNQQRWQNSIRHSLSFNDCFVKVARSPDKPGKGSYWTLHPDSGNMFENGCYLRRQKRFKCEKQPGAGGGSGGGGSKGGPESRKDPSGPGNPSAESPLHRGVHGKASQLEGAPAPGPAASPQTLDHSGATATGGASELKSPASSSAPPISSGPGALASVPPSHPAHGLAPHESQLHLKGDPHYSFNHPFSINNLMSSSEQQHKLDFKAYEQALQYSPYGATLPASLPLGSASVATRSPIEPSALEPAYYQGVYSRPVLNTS
Notes: whole designed probe, mean of two concentrations, ends assumed
Constant ends, left off below: GTGAGCGGTGCCCATTGATGGGGAAC … TTTCACTGGGATCGTGGGGAC
TCTCCCCTGCAGGAGTTTGGACTAATCAGGTCACTACACCCTGACACAGCAGTCTCCAGTCTCTACCACTCATTGTTTGCAACATGACGTAATGTCAACAGACCACAGAGAAGTTAGCAACAGGGAAGGGAAAACACTTTAATCTCAAGGTCATCCCCAGGGTTCAGCAGGACATATATCCTATATCGAATCA: 0.364 ratio
TCTAATCCATACCAAGGATTCCCATGGGGAAACTGTTATCTCTCAACTCAGTGAGGGCTATTGACAAAGACCAGTGCTCTTTCTTCTCTGTAGGTAATCTGTGACTCATGCAAGCCTGAGGGAGAAAATACAGTATATCTAAGAGTTAAGACCTCCCAGCTTCACATTCTGTTATAGCAGCTGCTTCATGCCA: -0.019 ratio
ATCCAGAGGTTGGGCTTGGCATCCAGTTTCTTGCATGTAGAGGAACAAAGAAAGGAAGAGCTCATGCCCACTCTGTAATTATTCAAAATTTATGTTTACTTAGAATTTATCATGCTGCTTAAAATGATCAGAAAAGATTCTCTTTAAAAACTGCTCTGGCTCTAGTCTAAATTACCAAGATATCAAATCACGA: 0.364 ratio
TGTGAGCTTGTTTGTTCACTGAAAGCACTCATCATAAGCCTCATCAATATAAAAACTCTTGGTAGGACCAAGGGCAAACTAAGCTGAAGATCATGTTTGCATAGTTCACCTGCAACTTACCAACGTAGTTCAGAATAGAGTATGTCAAACCACCTTATAAAAACTGGGGCATCTGAAGGCATAAAAGTGTTCA: 0.33 ratio
GGCTGTTTAGGTAGCTGGCAGGAAGTAGTATGTGTCTCCAGAGCATAAAATTGGCCGCAAAGTAGGTAGGGCCTATGAAAATACTGATGTAATGTAAACATTGTATTTCTAAACTATTTACAAGGTCATCCCTACCCTACATGAGAGGTCAGCTCTACCACTAAGAGGTCCCACATGGACTTCTACAATATTC: 0.479 ratio

Repeated from above (series 3):
CUGCUCA: -0.338
ACUAGCA: -0.0844
GAUUCAC: -0.275
CUUGUAA: -0.101
UCCCACU: -0.342
CUAGAGU: -0.396
